Published values gathered from unrelated publications.
Numbered parts are unrelated; each lists some results of a single study.

Sample 1
Cell line: HaCaT
Concentration: 100 µM
Time: 18 h
Quantity: viability
C=CC[C@]1(O)CC[C@H]2[C@@H]3CCC4=CC(=O)CCC4=C3C=C[C@@]21C: 54.5%
C[C@@H]1[C@H](O)[C@@H](C)/C=C/C=C/CC/C=C/C=C/C=C/C=C/[C@H](O[C@H]2O[C@@H](C)[C@H](O)[C@@H](N)[C@H]2O)C[C@@H]2O[C@](O)(C[C@@H](O)[C@H](O)CC[C@@H](O)C[C@@H](O)C[C@@H](O)CC(=O)O[C@H]1C)C[C@H](O)[C@H]2C(=O)O: 96%
CCOP(=S)(OCC)Oc1cc(C)nc(C(C)C)n1: 88.7%
CC(C)C(Br)C(=O)NC(N)=O (stereo not drawn): 108%
C[C@H]1CC(=O)C[C@@H]2CC[C@H]3[C@@H]4CC[C@H](O)[C@@]4(C)CC[C@@H]3[C@]21C: 54.9%

Sample 2
Cell line: HEK-293T-ACE2
Method: Hoechst nuclei count
Concentration: concentration not given
Notes: counter-screen
Reference: vehicle
Quantity: cell number
COC(=O)N[C@H](C(=O)N[C@@H](Cc1ccccc1)[C@@H](O)CN(Cc1ccc(-c2ccccn2)cc1)NC(=O)[C@@H](NC(=O)OC)C(C)(C)C)C(C)(C)C.O=S(=O)(O)O: 96.4%
Cc1cc(C#N)cc(C)c1Oc1nc(Nc2ccc(C#N)cc2)nc(N)c1Br: 70.7%
CC[C@H]1OC(=O)[C@H](C)[C@@H](O[C@H]2C[C@@](C)(OC)[C@@H](O)[C@H](C)O2)[C@H](C)[C@@H](O[C@@H]2O[C@H](C)C[C@H](N(C)C)[C@H]2O)[C@](C)(O)C[C@@H](C)CN(C)[C@H](C)[C@@H](O)[C@]1(C)O: 100%
Nc1nc2[nH]cc(CCc3ccc(C(=O)N[C@@H](CCC(=O)[O-])C(=O)[O-])cc3)c2c(=O)[nH]1.Nc1nc2[nH]cc(CCc3ccc(C(=O)N[C@@H](CCC(=O)[O-])C(=O)[O-])cc3)c2c(=O)[nH]1.O.O.O.O.O.[Na+].[Na+].[Na+].[Na+]: 87.2%
NCCC(O)(P(=O)([O-])O)P(=O)([O-])O.[Na+].[Na+]: 96.8%
CN1CCc2nc(C(=O)N[C@@H]3C[C@@H](C(=O)N(C)C)CC[C@@H]3NC(=O)C(=O)Nc3ccc(Cl)cn3)sc2C1.Cc1ccc(S(=O)(=O)O)cc1.O: 106%
Cc1nccn1CC1CCc2c(c3ccccc3n2C)C1=O.Cl (stereo not drawn): 93.5%
CC(=O)OC(C)OC(=O)C(C)c1ccc(-c2ccccc2)c(F)c1 (stereo not drawn): 97.4%
OC[C@H]1O[C@@H](c2ccc(Cl)c(Cc3ccc(O[C@H]4CCOC4)cc3)c2)[C@H](O)[C@@H](O)[C@@H]1O: 99.8%
CC(CN(C)C)CN1c2ccccc2Sc2ccccc21.CC(CN(C)C)CN1c2ccccc2Sc2ccccc21.O=C(O)C(O)C(O)C(=O)O (stereo not drawn): 96.9%
Cc1nc2c([nH]1)-c1ccccc1N(C(=O)c1ccc(NC(=O)c3ccccc3-c3ccccc3)cc1)CC2.Cl: 98.2%
CC(C)C(=O)OCC(=O)[C@@]12O[C@H](C3CCCCC3)O[C@@H]1C[C@H]1[C@@H]3CCC4=CC(=O)C=C[C@]4(C)[C@H]3[C@@H](O)C[C@@]12C: 102%
CO[C@H]1C[C@@H]2CC[C@@H](C)[C@@](O)(O2)C(=O)C(=O)N2CCCC[C@H]2C(=O)O[C@H]([C@H](C)C[C@@H]2CC[C@@H](OC(=O)C(C)(CO)CO)[C@H](OC)C2)CC(=O)[C@H](C)/C=C(\C)[C@@H](O)[C@@H](OC)C(=O)[C@H](C)C[C@H](C)/C=C/C=C/C=C/1C: 104%
CCN[C@@H]1C[C@H](N)[C@@H](O[C@H]2OC(CN)=CC[C@H]2N)[C@H](O)[C@H]1O[C@H]1OC[C@](C)(O)[C@H](NC)[C@H]1O.CCN[C@@H]1C[C@H](N)[C@@H](O[C@H]2OC(CN)=CC[C@H]2N)[C@H](O)[C@H]1O[C@H]1OC[C@](C)(O)[C@H](NC)[C@H]1O.O=S(=O)(O)O.O=S(=O)(O)O.O=S(=O)(O)O.O=S(=O)(O)O.O=S(=O)(O)O: 97.7%
COC(=O)c1ccc2c(c1)NC(=O)/C2=C(\Nc1ccc(N(C)C(=O)CN2CCN(C)CC2)cc1)c1ccccc1: 101%
CC(=O)O[C@]1(C(C)=O)CC[C@H]2[C@@H]3C[C@H](C)C4=CC(=O)CC[C@]4(C)[C@H]3CC[C@@]21C: 98.6%
CO[C@H]1C[C@@H]2CC[C@@H](C)[C@@](O)(O2)C(=O)C(=O)N2CCCC[C@H]2C(=O)O[C@H]([C@H](C)C[C@@H]2CC[C@@H](OCCO)[C@H](OC)C2)CC(=O)[C@H](C)/C=C(\C)[C@@H](O)[C@@H](OC)C(=O)[C@H](C)C[C@H](C)/C=C/C=C/C=C/1C: 106%
Cc1[nH]c2ccccc2c1CCNCc1ccc(/C=C/C(=O)NO)cc1: 55.3%
CC[C@H](Nc1ncnc2[nH]cnc12)c1nc2cccc(F)c2c(=O)n1-c1ccccc1: 100%
CNC(=O)c1ccc(N2C(=S)N(c3ccc(C#N)c(C(F)(F)F)c3)C(=O)C2(C)C)cc1F: 97.6%
C[C@@H]1CCO[C@H]2Cn3cc(C(=O)NCc4ccc(F)cc4F)c(=O)c([O-])c3C(=O)N12.[Na+]: 101%
CC(C)C[C@H](NC(=O)CNC(=O)c1cc(Cl)ccc1Cl)B(O)O: 57.4%
N=C(N)NCCN1CCCCCCC1.O=S(=O)(O)O: 106%
COc1cc2nccc(Oc3ccc(NC(=O)C4(C(=O)Nc5ccc(F)cc5)CC4)cc3)c2cc1OC: 87.7%
CCCCCCCCc1ccc(CCC(N)(CO)CO)cc1.Cl: 81.7%

Sample 3
Cell line: HEK-293T-ACE2-TMPRSS2
Method: cell count
Concentration: 10 µM
Quantity: viability
CCn1nc(C)c(CNC(=O)C2CCC(=O)N(CCc3ccccn3)C2)c1C (stereo not drawn): 112%
O=C(COc1cccnc1)N1CCCC2(CCNC2)C1 (stereo not drawn): 76%
CN(C)C1(CNC(=O)c2ccc(C#CC(C)(C)O)o2)CCSC1 (stereo not drawn): 70%
Cc1cccn2cc(C(=O)N3CCCCC3CCc3ccccn3)nc12 (stereo not drawn): 67%
CCc1cc(C(=O)NCc2cc(C)cc3c(C)c(CC)[nH]c23)n(C)n1: 78%
CC(C)N(Cc1ccccc1)C(=O)Cn1ncc(Br)c(Br)c1=O: 66%
OC(CN1CCc2ccccc2C1)c1cc(F)ccc1F (stereo not drawn): 76%
FC(F)(F)c1cc(NC(=S)N/N=C/c2ccccn2)cc(C(F)(F)F)c1: 81%
COCCN(Cc1cnn(C)c1)C(=O)c1cc(-c2ccccc2Cl)oc1C: 70%
CCC(C)(C(=O)NC1CCCCC1)N(Cc1ccco1)C(=O)CNC(C)=O (stereo not drawn): 106%
CCNC(=O)[C@H]1O[C@@H](n2cnc3c(N)nc(NCCc4ccc(CCC(=O)O)cc4)nc32)[C@H](O)[C@@H]1O: 76%
COc1cc(-n2ccnc2)cc(OC)c1OC: 65%
CCN(CC)c1ccc2cc(-c3nc(-c4ccccc4)cs3)c(=O)oc2c1: 108%
CS(=O)(=O)CC(=O)N1CCCC2(CCNC2)C1 (stereo not drawn): 85%
O=C(c1noc2ccc(S(=O)(=O)NCc3ccc4c(c3)OCO4)cc12)N1CCOCC1: 102%
Cc1cccc(CN2CCN(C(=O)c3cn(C4CCCCC4)nn3)CC2=O)c1: 112%
Cc1ccccc1NC(=O)N1c2ccccc2CC1c1noc(C2CCOCC2)n1 (stereo not drawn): 391%
O=c1c2ccccc2nc(SC2c3ccccc3-c3ccccc32)n1CCCO: 65%
N#CC(C#N)=C/C=C(/Sc1ncc(C(F)(F)F)cc1Cl)c1ccc(Cl)cc1: 71%
N#CC(C#N)=NNc1ccc2c(c1)OCCO2: 65%
CC(CCc1ccccc1)NC(=O)c1ccc(-c2cc(N3CCOCC3)ncn2)cc1 (stereo not drawn): 106%
O=C(c1ccc(N2CC(O)C2)nc1)N1CCC(CCc2ccccc2)CC1: 65%
N#C/C(=C\Nc1cc(C(F)(F)F)cc(C(F)(F)F)c1)S(=O)(=O)Cc1ccc(Cl)cc1: 65%
CC(C)=CCC[C@]1(C)C=Cc2c(O)c3c(c(CC=C(C)C)c2O1)O[C@]12C(=C[C@@H]4C[C@H]1C(C)(C)OC2(C/C=C(/C)C(=O)O)C4=O)C3=O: 101%
CC(C)(C)NC(=O)NC(=O)Cn1ncc(Cl)c(Cl)c1=O: 73%

Sample 4
Target: Dual specificity tyrosine-phosphorylation-regulated kinase 1B (DYRK1B, Homo sapiens, UniProt Q9Y463)
Effect on: enzyme activity
Mode: inhibitor
Method: radiometric
Concentration: 0.5 µM
Quantity: remaining activity
N#CC(=C(N)Sc1ccc(N)cc1)c1ccccc1C(F)(F)F: 99.6%
Cc1cc(Nc2nc(-c3ccccc3)nc3ccccc23)n[nH]1: 90.8%
O=C1Cc2c([nH]c3ccc([N+](=O)[O-])cc23)-c2ccccc2N1: 87.5%
CCCC(=O)Oc1ccc2[nH]c(C(=O)c3cc4ccccc4[nH]3)cc2c1: 103%
Cc1cncc2cccc(S(=O)(=O)N3CCCN(C(=O)CN)C[C@@H]3C)c12: 101%
Nc1ncnc2c1cnn2-c1ccccc1: 93%
CC(C)(C)n1nc(Cc2cccc3ccccc23)c2c(N)ncnc21: 98.6%
COc1ccc(S(=O)(=O)N(CCO)c2ccccc2CN(C)CC=Cc2ccc(Cl)cc2)cc1: 104%
O=C1NC(=O)C(c2c[nH]c3ccccc23)=C1c1c[nH]c2ccccc12: 86.8%
O=S(=O)(NCCNC/C=C/c1ccc(Br)cc1)c1cccc2cnccc12: 95.3%
CCc1[nH]c(-c2ccc(OC)cc2)nc1-c1ccncc1: 106%
CC(=O)c1ccc(N2CCOCC2)cc1O: 99.9%
CC[n+]1c(/C=C/N(C)c2ccccc2)n(-c2ccccc2)c2ccc(-c3nc4ccccc4s3)cc21: 101%
COc1cc(Nc2c(C#N)cnc3cc(OCCCN4CCN(C)CC4)c(OC)cc23)c(Cl)cc1Cl: 97%
Cc1ccc(NC2=CC(=O)c3sc(C)nc3C2=O)cc1: 94.6%
Nc1nc(Nc2ccc(S(N)(=O)=O)cc2)nn1C(=O)c1c(F)cccc1F: 87.6%
Fc1ccc(-c2nc3n(c2-c2ccncc2)CCS3)cc1: 104%
O=C1NC(=O)c2c1c1c3ccccc3n3c1c1c2c2ccccc2n1[C@H]1CC[C@@H]3O1: 3.15%
CC(C)(C)c1cc(C=C(C#N)C#N)cc(Br)c1O: 103%
Oc1ccc(Nc2nc(-c3ccc(Cl)cc3)cs2)cc1: 106%
Nc1nccc(-c2c(-c3ccc(F)cc3)ncn2C2CCNCC2)n1: 100%
NC(=O)c1ccc(N(C(N)=O)c2c(F)cccc2F)nc1-c1ccc(F)cc1F: 97.1%
CSc1nc(-c2ccnc(N[C@@H](C)c3ccccc3)c2)c(-c2ccc(F)cc2)[nH]1 (racemic): 84.6%

Repeated from above (sample 4):
Cc1ccc(NC2=CC(=O)c3sc(C)nc3C2=O)cc1: 94.6%
O=C1NC(=O)c2c1c1c3ccccc3n3c1c1c2c2ccccc2n1[C@H]1CC[C@@H]3O1: 3.15%
CC(C)(C)n1nc(Cc2cccc3ccccc23)c2c(N)ncnc21: 98.6%
O=S(=O)(NCCNC/C=C/c1ccc(Br)cc1)c1cccc2cnccc12: 95.3%
Nc1ncnc2c1cnn2-c1ccccc1: 93%
O=C1NC(=O)C(c2c[nH]c3ccccc23)=C1c1c[nH]c2ccccc12: 86.8%
CCc1[nH]c(-c2ccc(OC)cc2)nc1-c1ccncc1: 106%
CC(=O)c1ccc(N2CCOCC2)cc1O: 99.9%
COc1ccc(S(=O)(=O)N(CCO)c2ccccc2CN(C)CC=Cc2ccc(Cl)cc2)cc1: 104%
Cc1cc(Nc2nc(-c3ccccc3)nc3ccccc23)n[nH]1: 90.8%
CC[n+]1c(/C=C/N(C)c2ccccc2)n(-c2ccccc2)c2ccc(-c3nc4ccccc4s3)cc21: 101%
